Published values collected from several papers.
Each numbered part is a random draw from the data of one study; scales do not carry over between parts.

Block 1
Target: Histone acetyltransferase KAT6A, winged helix 1, GST fusion (KAT6A, Homo sapiens, UniProt Q92794, residues 1-85)
Method: protein binding microarray
Molecule type: double-stranded DNA, one strand shown
Matrix: in vitro
Tested at: not given
Setting: 8-mer, flanks averaged, mean of 2 arrays, mostly near background
Relative to: not given
Reading: higher = stronger binding
Construct (chain): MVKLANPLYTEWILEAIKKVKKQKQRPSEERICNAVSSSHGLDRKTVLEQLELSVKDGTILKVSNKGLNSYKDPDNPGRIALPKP
Oligonucleotide | E-score
ATACTGGA | -0.215
CGATGACG | 0.19
AGGATGTA | -0.188
AAGCAATA | -0.142
ATCAGCCG | 0.271
CTTATGAA | -0.0245
AAAACGCA | 0.0402
GAGCTAAC | -0.0887

Block 2
Target: RING finger protein unkempt homolog, zinc fingers 1-6, GST-SBP tag (UNK, Homo sapiens, UniProt Q9C0B0, residues 30-357)
Chain of UniProt Q9C0B0 (30-357, looked up): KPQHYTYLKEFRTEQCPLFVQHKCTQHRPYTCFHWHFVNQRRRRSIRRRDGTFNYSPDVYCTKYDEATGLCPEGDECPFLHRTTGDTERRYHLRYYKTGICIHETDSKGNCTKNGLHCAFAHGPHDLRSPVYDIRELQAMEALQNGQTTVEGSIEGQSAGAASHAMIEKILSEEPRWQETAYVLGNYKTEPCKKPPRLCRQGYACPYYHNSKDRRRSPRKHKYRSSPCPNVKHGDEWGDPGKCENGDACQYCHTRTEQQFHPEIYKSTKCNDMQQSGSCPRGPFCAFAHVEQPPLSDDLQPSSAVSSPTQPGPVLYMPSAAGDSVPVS
Method: RNA Bind-n-Seq
Molecule type: RNA
Matrix: in vitro
Tested at: not given
Setting: RNA with constant flanks, human and mouse sites, ends assumed
Relative to: input RNA pool
Reading: higher = stronger binding
Shared flanks, not repeated: GGGAGUUCUACAGUCCGACGAUC … CAACAGAGGAUUGAGCAUCA
Oligonucleotide | bound/input enrichment [ratio]
GGCAUGAAGCUUGCUUGAGCCAAUGCUAUGCUUGCUGGGCUUUGGCUGACUGGCUUUGGGCCACCAACUGUAUUUGCAUAGUGAUGGCUUGGAAGUGUCCAUAGAAGGGAUUGCAAUAAA | 0.276
GGAAAAGCGAGGUAAUUGUGAGCCCAGGGUGGGGCGUGCUGGAUGGGGGCCGGCAUUGGAAGGGGUGACCCUGGGAGCUGGGCUGCAUUACAGACUCACCCCUUUGUCCCAUUCCCUGGG | 0.359
GUGAAGGCUGAGAUACCAUUGAAUGAGCAAACCACUUUAAGUAAGGAGAAUUACCUGUUCACUAGAGGCCAAACAUUUGAUGAAAAGACCCUAGCCAGAGAUUUAAUUCAGGCAGCACAG | 0.289
UCAAGGCUGAGGAAAGAGAACGAUCUCUUUGAUAACUACAUGCAGCAGGAUGCUCACGAGUUCUUAAAUUAUUUGCUAAACACUAUUGCGGACAUCCUGCAGGAAGAGAAGAAACAGGAA | 0.283
AGUGACUUAUCUGAGAAUGUAGAGUCAGUGGUUAAUGAAGAAAAAAUAACAGAGAGUUCCCUAGUAGAAAUUACUGAACAUAAAGAUUUUACACUAAAAACAGAGGAGCUUAUAGAGAGC | 2.85
CAAGCUGAACAGCUUGCUGCUGAGACUGAAGGCAUCUCUGAGCUUCCACAUGUAGAACGAAAUUUACAGGAGAUCCAGCAAGCUGGUGAGCGCCUGCGUUCCCGUACCCUCACACGCACA | 0.326
UGGUGUACAAAUACGACAUUUUUGCAAGAAGGAAUGCCUACUUCUGCACGAUGUGAUGAUUUAGAAGCUUUGAAAAAGAAGGGUUGCCAGCCAAGUGACAUAGAGAAUCCCAGAGGCUCU | 0.218
AUAACAUUACACGAAAUGGCAGAAACAGAUGAAGGAUGGUUGGAUGUUGUCCAGUCUUUAAUUAGAGUUAUUCCACUGGAAGAUCCACUGGGACCAGCUGUUAUAACAUUGUUACUAGAU | 0.714

Block 3
Target: Centromere-binding protein 1, full length, N-terminal tag (CBF1, Saccharomyces cerevisiae, UniProt P17106, residues 1-351)
Chain of UniProt P17106 (whole entry, looked up): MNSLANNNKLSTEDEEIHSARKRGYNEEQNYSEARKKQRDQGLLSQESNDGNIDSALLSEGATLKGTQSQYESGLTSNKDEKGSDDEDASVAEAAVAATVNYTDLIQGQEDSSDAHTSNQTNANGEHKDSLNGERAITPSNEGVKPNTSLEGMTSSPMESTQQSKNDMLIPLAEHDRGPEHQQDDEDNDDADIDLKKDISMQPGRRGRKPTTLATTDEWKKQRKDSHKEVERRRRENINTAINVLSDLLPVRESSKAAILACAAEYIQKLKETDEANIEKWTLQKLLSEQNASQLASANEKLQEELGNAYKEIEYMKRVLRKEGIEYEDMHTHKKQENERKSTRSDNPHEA
Method: protein-binding microarray
Molecule type: double-stranded DNA, one strand shown
Matrix: in vitro
Tested at: 0.8 µM
Setting: whole 60-bp probe, no competitor
Reading: higher = stronger binding
Shared flanks, not repeated: … GTCTTGATTCGCTTGACGCTGCTG
Oligonucleotide | fluorescence intensity
CTACCGTCCTCTACTCATGTGATTCGAACTATGTTC | 1280 a.u.
CTAGTTCACATTGATGAGCACGTGAAAATCTTATTC | 6860 a.u.
CTATAGAATACTACACGTGCAATCGGTAGCATGTTC | 3650 a.u.
GAAACACGTGAAAAGCACGTGAACAACAAAGCATAG | 11900 a.u.
CTACTCGATGTGAGCCACGCGTCGGTTTTTCTTTTC | 546 a.u.
CTAGAACAGTTCGATTCTGATGTAGGCAATGGATTC | 504 a.u.
CTATAAGGTAAGTTCGAGGTGACATATTTCACATTC | 525 a.u.

Further values, each from its own experiment
Molecule | target | test | system | conditions | scale | quantity | value
PhoQ, residues 284 288 289 292 302 303 SNGLAW | PhoP, residues 12 14 15 18 19 SEGLL (Escherichia coli, UniProt P23836) | Sort-seq, measured: YFP reporter | E. coli | PhoQ-PhoP variant library, with: 10 µM Mg2+ | relative to: high Mg2+ state, higher = stronger signaling | fold induction | 13.3

For quick reference, copied from above (block 2):
Oligonucleotide | bound/input enrichment [ratio]
GUGAAGGCUGAGAUACCAUUGAAUGAGCAAACCACUUUAAGUAAGGAGAAUUACCUGUUCACUAGAGGCCAAACAUUUGAUGAAAAGACCCUAGCCAGAGAUUUAAUUCAGGCAGCACAG | 0.289
UCAAGGCUGAGGAAAGAGAACGAUCUCUUUGAUAACUACAUGCAGCAGGAUGCUCACGAGUUCUUAAAUUAUUUGCUAAACACUAUUGCGGACAUCCUGCAGGAAGAGAAGAAACAGGAA | 0.283
AGUGACUUAUCUGAGAAUGUAGAGUCAGUGGUUAAUGAAGAAAAAAUAACAGAGAGUUCCCUAGUAGAAAUUACUGAACAUAAAGAUUUUACACUAAAAACAGAGGAGCUUAUAGAGAGC | 2.85
